Results pooled from the literature.
Parts stem from different laboratories: compare values within a part only. Positions count from the first letter of the parent shown.

Series 1
Target: Interferon regulatory factor 3, full length, phosphomimetic (IRF3, Homo sapiens, UniProt Q14653, residues 1-427, S386D/S396D/S398D/S402D/T404D/S405D)
Chain of UniProt Q14653 (whole entry, unmodified, looked up): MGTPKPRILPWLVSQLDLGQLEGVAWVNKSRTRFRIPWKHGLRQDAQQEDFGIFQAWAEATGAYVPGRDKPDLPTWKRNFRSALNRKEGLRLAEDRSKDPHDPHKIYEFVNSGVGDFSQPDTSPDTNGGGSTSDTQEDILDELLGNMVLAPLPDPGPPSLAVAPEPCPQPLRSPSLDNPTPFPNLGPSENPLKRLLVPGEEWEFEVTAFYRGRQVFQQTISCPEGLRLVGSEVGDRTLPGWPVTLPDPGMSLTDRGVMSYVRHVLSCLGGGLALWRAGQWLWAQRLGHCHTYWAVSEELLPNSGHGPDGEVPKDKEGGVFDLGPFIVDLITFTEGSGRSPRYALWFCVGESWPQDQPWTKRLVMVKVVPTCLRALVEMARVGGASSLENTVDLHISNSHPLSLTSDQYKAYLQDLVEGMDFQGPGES
Technique: protein-binding microarray
Form: double-stranded DNA, one strand shown
Medium: in vitro
Tested at: 2540 nM top
Setting: 60-bp whole probe
Together with: salmon DNA 0.4 mg/ml
Relative to: random background probes
Direction: higher = stronger binding
Endpoint: fitted relative affinity
All sequences stand within: GCCTAGCAC … GTCTTGATTCGCTTGACGCTGCTG
GACGGTATCGGGACTGTGGACGTGCTA: 1.53 z-score
GACGAACGGAGTCTCGAGACGTGCTAG: -0.342 z-score
TCATCTTCCCCTCTCATACTGTGCTAG: 1.91 z-score
CCCGCCCCGCCCCGCCCGCAGTGCTAG: -0.838 z-score
GACGGTTTCGGCTATCGGGACGTGCTA: 3.32 z-score
TTAGGGTTCGACTATCGGTTAGTGCTA: -0.079 z-score
TCACATTACAGCTATTTTACTGTGCTA: 0.645 z-score
TCTGTTTTTGCTTTCTTTTTGTGCTAG: 2.6 z-score
GACGGTCTCGGTCTCGGGTCGTGCTAG: 1.47 z-score
GACCGTATCGACTATCGGGACGTGCTA: 1.2 z-score
GACGGTATCCTGCTGCTGACGTGCTAG: 0.954 z-score
TTAGGTATCCTTTTCATTTAGTGCTAG: 7.87 z-score
TTAGGACTGGGTTATCGGTTAGTGCTA: -0.539 z-score
GACGCTTTCAGTTTCGAGACGTGCTAG: 4.86 z-score
AAGGAAATCGGTGATCAGTCTGTGCTA: -0.24 z-score
TTAGATATCAGTATCGTTTAGTGCTAG: 2.21 z-score
TACGGTTTCGGGTTTCGGGACGTGCTA: 5.69 z-score
TTAGGACTGGACTTTCGGTCAGTGCTA: 0.198 z-score
GACGGTTCCGGGTATCGGGACGTGCTA: 1.47 z-score
TTGGATTTCGGGTTTCGATTAGTGCTA: 2.57 z-score
GACGATATCAGTTTCGCGACGTGCTAG: 2.48 z-score
GACGTTATCGGGTTTCGAGACGTGCTA: 1.44 z-score
GACGGTATCGGTGTCGGGACGTGCTAG: 2.49 z-score
GACGGTTTCGTACTGGGGACGTGCTAG: 4.19 z-score

Series 2
Target: CCNA1, cyclin fold, Cln2 fusion (human)
Technique: yeast growth competition, sequencing
Medium: yeast
Setting: weak parent motif
Relative to: not given
Direction: higher = stronger binding
Endpoint: normalised enrichment score
Starting sequence: DNAH7 docking peptide (human); HELFQRLDFDNDG; partner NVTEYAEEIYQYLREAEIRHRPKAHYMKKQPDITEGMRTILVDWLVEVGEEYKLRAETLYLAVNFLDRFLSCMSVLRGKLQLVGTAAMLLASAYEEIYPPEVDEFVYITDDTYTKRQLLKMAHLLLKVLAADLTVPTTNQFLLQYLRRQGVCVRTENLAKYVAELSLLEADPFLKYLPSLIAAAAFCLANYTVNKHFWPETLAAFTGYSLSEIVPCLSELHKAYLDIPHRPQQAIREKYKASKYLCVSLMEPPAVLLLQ
AELFQRLDFDNDG [H1A]: -0.119
HELFQRLDFDNDA [G13A]: -0.0366
HELFQRLDFANDG [D10A]: -0.535
HELFQALDFDNDG [R6A]: 0.0157
HELFQRLAFDNDG [D8A]: -0.22
HELFARLDFDNDG [Q5A]: -0.0767
HEAFQRLDFDNDG [L3A]: -0.145

Series 3
Target: ABI1, truncated, D143A, DHFR fusion (Arabidopsis thaliana)
Technique: DHFR PCA, deep sequencing
Medium: yeast
Setting: methotrexate growth selection, single substitutions
Together with: (+)-ABA 710 µM
Relative to: wild-type fitted maximum
Direction: higher = stronger binding
Endpoint: relative binding score
Starting sequence: PYL1, truncated, DHFR fusion (Arabidopsis thaliana); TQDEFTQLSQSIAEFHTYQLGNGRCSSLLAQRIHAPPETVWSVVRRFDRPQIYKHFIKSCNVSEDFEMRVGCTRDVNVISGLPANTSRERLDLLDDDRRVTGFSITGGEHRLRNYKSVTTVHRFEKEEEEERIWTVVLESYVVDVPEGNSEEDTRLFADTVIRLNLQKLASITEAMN
H122R: 46.4%
E139R: 35.9%
L91C: 96%
F47I: 9.7%
Q2G: 91.8%
I133D: 117%
S11A: 90.9%
K116M: 88.7%
L91S: 21%
L93K: 105%
R99G: 90.1%
C60H: 25.9%
N165R: 1.34%
W134K: 101%
E130N: 106%
H122F: 36.3%
V136S: 67.5%
L8T: 92.2%
L8D: 70.7%
N177P: 92.7%
H122K: 43.7%
S150D: 101%

Series 4
Target: RNA binding protein fox-1 homolog 2, RRM domain, GST-SBP tag (RBFOX2, Homo sapiens, UniProt O43251-10, residues 100-194)
Technique: RNA Bind-n-Seq
Form: RNA
Medium: in vitro
Tested at: 365 nM
Setting: natural RNA segment, single round, ends assumed
Relative to: no-protein control
Direction: higher = stronger binding
Endpoint: RBNS enrichment (R)
All sequences stand within: GGGAGUUCUACAGUCCGACGAUC … UGGAAUUCUCGGGUGCCAA
Residues (chain): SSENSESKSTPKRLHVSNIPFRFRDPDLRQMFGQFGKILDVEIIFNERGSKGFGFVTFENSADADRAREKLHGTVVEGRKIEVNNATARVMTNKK
CAAGAGUUGUGACAACUUCCUGAGGGAUCUAUACUUGCUUUGUGUUCUUUGUGUCAACAUGAACAAAUUUUAUUUGUAGGGGAACUCAUUUGGGGUGCAAAUGCUAAUGU: 0.392
CUCCUCUUGGGGAAAUUGUGUAUGUAUUCACUUAGGUCAAAGCCUGACCUUCGAGCAACCUCUCCUAGCCAAUAUAUUAUUCCAGAGACCAGGAUGACCUAGCAGGCAGG: 0.706
GGACUCCGAUGAAGACGACGCCGAUUACUAAGAGGACGCACUUAGACAGACUUCCGGAGCAGUGUCUAGGACAGUCACCACCUUGUAAAUGUUUACUUUGUUCCCUGUCU: 0.247
AACUUGUUCAAAAGAACAUCAACGUGCAAUGUUUUAAGGUCUAUCUUAAGAAGCCCUGGCCAAAUUUUGAUCCUAACCUUGAAGUAUGCCUUGAACUUAUUAACAUGGCC: 0.519
UGAAAACCAACACGAAAGCUAAUCAUGACAAGGAAGUAAAACAUAGGAUCUGAGAGGAGAGGGUCCUUGCUCCAUGCAUGAGGACAUCCAUCCCACCCACUGCCUCUGAA: 2.63
UUUAUAGUUCUCCAUUUGUCUCAUGUUCCGAAUGUGAAGUGUCCUAAUGUGUAUUAAAGUCAGAAAAUAAUAUAUUUAAGGUAUACUAAGUAUGAAUCUGCUAUGAUAAA: 0.827
UCCAGGAGGGACCCUUGGACUUCUUUGUGUGUCCAGUUUGGCCUCCUGCCCAAACUGUCCAUUCCAGCAGCUCCUGCCCCCUUCUCUGUACUUGCUUCUGUCUGACACCU: 0.819
GCAGGCAGCAAAACACCAAAUCACAACGCUUUGCUUCUCGACAUCAUGGGCCAGGUCCUCAGUUUCUAACUCUUUCCCUUCCCCACAGUUCGUUGUCGCCAUGCGGCUUU: 0.297
UCAUCUAAACUUCAGUUUACAGACAAAAUUAGAGCUUUGUUUUAUUUGGAGAAGGGGGAUGCAUUCAUUUGAUUUUGUUUUUUGUUUUUAAUUAAUUGAAUAUAAUAGGA: 0.856
CCCCCACGGGGGUUCACUAGGUUUGGGCCUGAGAACACCUGUCUGGACAAAGGUGAUGAAACCAAGAGAGCUCCUGCCUUCUUGCCUGCCUACGUGAACCACCUGGGUCU: 0.66
UGGACUAUCCAAUUCAGGAAGCAGGAAAGCAGCCAGGAAAUGUGCUUCUGUUUUGCCAGUUAUUUCCGACAGUACUAUCAGAAGGAAGUGGUCAGCAGCUGUUCCUAGCC: 0.338
CGCCCGUUGUGCGAGAACCACUUCCACGCACGACGCGGCUCGCUGUGCGCCACGUGUGGCCUCCCUGUGACCGGCCGCUGCGUGUCGGCCCUGGGUCGCCGCUUCCACCC: 0.256

Series 5
Target: JUNB, bZIP domain (human)
Technique: DHFR protein complementation
Medium: yeast
Setting: single substitutions, most at no-binding floor
Relative to: wild-type JUN-FOS pair
Direction: higher = stronger binding
Endpoint: binding fitness
Starting sequence: JUN, bZIP domain (human); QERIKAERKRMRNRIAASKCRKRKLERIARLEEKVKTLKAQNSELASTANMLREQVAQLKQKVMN; partner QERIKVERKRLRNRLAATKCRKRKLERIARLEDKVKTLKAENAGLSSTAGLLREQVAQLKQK
A40K: -1.04 natural log
N42F: -1.47 natural log
E32G: -1.48 natural log
N42P: -1.58 natural log
K39G: -1.38 natural log
S43D: -1.1 natural log
K36N: -1.21 natural log
L52M: -1.42 natural log
Q41S: -1.49 natural log
A49F: -1.39 natural log
L38R: -1.49 natural log
E44I: -1.16 natural log
A49K: -1.26 natural log
S43H: -1.02 natural log
K39L: -1.06 natural log
E44R: -1.3 natural log
A57S: -1.35 natural log
L52I: -1.48 natural log
K34T: -0.886 natural log
Q55S: -1.44 natural log
A40P: -1.51 natural log
I28F: -1.31 natural log
L31G: -1.47 natural log
T37Y: -1.11 natural log
S47T: -1 natural log

Mixed results
PhoQ, residues 284 288 289 292 302 303 AMDMFI — fold induction (PhoP, residues 12 14 15 18 19 LWHVM (Escherichia coli, UniProt P23836); Sort-seq, item: YFP reporter; E. coli; PhoQ-PhoP variant library, together with: 10 µM Mg2+; relative to: high Mg2+ state, higher = stronger signaling): 0.901
